Assay results collected from several papers.
Protocols differ between the studies behind these lines. Numbers after ± are the reported error.

`COc1cc2nccc(Oc3ccc(NC(=O)c4cc5c(n(-c6ccccc6)c4=O)CCCC5=O)nc3)c2cc1OC`: “grade ≥3 Hyperglycaemia patients” 0% (relapsed or refractory AML; oral, 6 mg once daily).
For `C[C@@H](N)C1CCN(S(=O)(=O)c2cccc3cnccc23)CC1`, “systolic blood pressure reduction” read -16.5 mmHg (healthy volunteers; 250 mg, 2 h, standing; relative to: baseline).
`CCn1cc(C(=O)N2CCOCC2)c(=O)c2cc(NC3Cc4ccccc4C3)cnc21` has an AUC(0-last) of 22400 ng·h/mL (human, fed; oral suspension, 600 mg single dose, arithmetic mean).
For `CCCCOc1nc(N)c2c(n1)N(Cc1cccc(CN3CCCC3)c1)CC(=O)N2`, “drug-related TEAE incidence” read 0% (measured: visual impairment; human; oral, 2 mg).
`Cc1nc2ccc(OCc3ccc(C(F)(F)F)cc3)cc2[nH]1` gave a tissue/plasma ratio of 5.3 ± 2.6 (male Balb/c mice, brain; oral, 10 mg/kg, 72 h; relative to: tissue over plasma).
With `COc1cc(O)c2c(c1)C(=O)c1cc(C)cc(O)c1C2=O` the cell viability was 39.9 ± 10.6% (HepaRG co-cultured with HK-2; MTT; 133.33 µM, 48 h; relative to: untreated control).
`CCOc1c([C@H](C)n2nc(C)c3c(N)ncnc32)cc(Cl)c(F)c1[C@@H]1CNC(=O)C1` — result for “observations with PR ≤200 ms”: 66.7% (ECG; previously treated B-cell malignancy patients; oral, 15 mg once daily, baseline below thresholds).
`O=c1c(O)c(-c2ccc(O)cc2O)oc2cc(O)cc(O)c12` has a plasma concentration of 92.7 nM (human plasma; mean, both sexes).
`CN(C)C(=O)CCc1nc(-c2ccccc2)c(-c2ccccc2)o1` gave a necrotic cells of 0.75 ± 0.27 (COS-7; 50 µM, 24 h, 0.1% DMSO, unit not given; relative to: vehicle control).
`Cn1cc(Nc2nccc(-c3ccc4c(c3)CN(C3COC3)CC[C@H]4NC(=O)c3cn(C(C)(C)C)nn3)n2)cn1` — result for “percent change from baseline”: 34.2% (measured: Plasmablasts count; human, clinical trial, whole blood; 150 mg twice daily, follow-up).
For `CCN1/C(=C/C(C)=O)Sc2ccc(F)cc21`, “systolic blood pressure change” read 103 ± 5.1% (cynomolgus monkey; oral, 10 mg/kg, 0.5 h post-dose; relative to: pre-dose).
With `O=C(O)/C=C/c1ccc(OS(=O)(=O)O)cc1` the plasma concentration was 77.1 nM (human plasma; median).
For `Cc1nc(-c2cnc(NC(C)C)n(C)c2=O)ccc1Oc1ccnc(-c2cnn(C)c2)c1`, “apparent volume of distribution” read 13.3 L/kg (Beagle dog, male, plasma; oral, 30 mg/kg, crossover study, mean).
`O=C(O)c1cc(O)ccc1O` gave a plasma concentration of 4290 nM (human plasma; median, both sexes).
`COc1ccc2nc([S+]([O-])Cc3ncc(CO)c(OC)c3C)[nH]c2c1` (centres unmarked): “R/S enantiomer ratio” 3.38 (human, dried plasma spots; 4 h, with: fluvoxamine and voriconazole).
For `O=C(O)CCc1nc(-c2ccccc2)c(-c2ccccc2)o1`, the necrotic cells was 0.69 ± 0.21 (COS-7; 50 µM, 24 h, 0.1% DMSO, unit not given; relative to: vehicle control).
`C[C@H](Cn1cnc2c(N)ncnc21)OCP(=O)(O)O` — result for “minimum DcNP-associated fraction”: 97% (Macaca nemestrina, plasma; intravenous, time-averaged).
The plasma concentration of `O=C(O)Cc1ccc(O)c(O)c1` is reported as 1440 nM (human plasma; mean).
`CCn1cc(C(=O)O)c(=O)c2ccc(C)nc21` has an amount permeated of 1.96 nmol (starch gel membrane permeability; Gram-negative envelope surrogate; 200 µM, 20 min, pH 7.4).
For `Cc1noc(C)c1-c1cc(C(O)(c2ccccn2)c2ccccn2)c2nc(C3CC3)[nH]c2c1`, the AUCtau was 4130 ng·h/mL (human, plasma; oral, 4 mg, cycle 1 day 8, monotherapy).
`CC(C)(C(=O)N1CCOc2c(C#N)cncc2C1)C(F)F`: “subjects with adverse event” 12.5% (measured: Psychiatric disorders; human; oral, 20 mg twice daily, 14 days, multiple ascending dose).
Under “accumulation ratio (AUC)”, `CCc1nc(C(N)=O)c(Nc2ccc(N3CCC(N4CCN(C)CC4)CC3)c(OC)c2)nc1NC1CCOCC1` is recorded as 5.57 (Japanese patients, plasma; oral, 20 mg, cycle 1 day 28, multiple doses, mean; relative to: single dose).
Under “TEAE urinary sediment detected”, `O=C(O)CCC(=O)O.[2H]C([2H])([2H])Oc1cc(C)c2[nH]ccc2c1CN1CC[C@@H](C2CC2)C[C@H]1c1ccc(C(=O)O)cc1` is recorded as 0% (healthy Chinese subjects; 600 mg, single ascending dose).
`C[C@@H]1CCO[C@H]2Cn3cc(C(=O)NCc4ccc(F)cc4F)c(=O)c(O)c3C(=O)N12` has an AUC(0-24) of 48400 ng·h/mL (human paediatric patients, weight sample E to under sample F kg, plasma; oral, 50 mg film-coated tablet, steady state, geometric mean, population PK post-hoc, N 7).
`O=C1CCc2ccc(OCCCCN3CCN(c4cccc(Cl)c4Cl)CC3)cc2N1`: “adverse event incidence” 8.6% (measured: Rigidity; patients, CYP2D6 intermediate metabolizers; dose not given, long-acting oral or depot).
For `Cc1ccc([C@@H]2O[C@H](CO)[C@@H](O)[C@H](O)[C@H]2O)cc1Cc1ccc(-c2ccc(F)cc2)s1`, “urinary potassium excretion change” read -0.044 mEq (Japanese type 2 diabetes patients; 400 mg, day 17, 24 h urine collection; relative to: baseline).
For `CNCc1ccc(-c2[nH]c3cc(F)cc4c3c2CCNC4=O)cc1`, “patients with adverse event” read 7.7% (measured: dyspnea; human patients; oral, 600 mg twice daily, grade 1).
`CCO`: “number of TEAEs” 45 (human; concentration not given).
`O=C1CCC(N2Cc3cc(CO)c(F)cc3C2=O)C(=O)N1` (centres unmarked) has a plasma concentration of 0.59 ± 0.34 ng/mL (cynomolgus monkey, male; oral, 0.3 mg/kg parent drug, 4 h).
`Cc1cc(-c2ccc3cc[nH]c(=O)c3c2)ccc1O[C@H]1O[C@H](CO)[C@@H](O)[C@H](O)[C@@H]1O` has an AUC(0-all) of 126 ng·h/mL (male Sprague-Dawley rat, plasma; intravenous, 3 mg/kg, group mean).
`CC(=O)N[C@H]1CC[C@H](NC(=O)CN2CCN(c3nncc(-c4ccc(C)cc4)n3)CC2)CC1` has an AUC(0-last) of 5350 ng·h/mL (men aged 18-55 years, plasma; oral, 100 mg single dose, study).
Under “VAS score change”, `COc1cc2c(cc1OC)C(=O)C(CC1CCN(Cc3ccccc3)CC1)C2` (centres unmarked) is recorded as 0.59 mm (Bond-Lader VAS, measured: Calmness; human; dose not given; relative to: placebo, direction not given).
`C[C@@H](O)[C@H]1C(=O)N2C(C(=O)O)=C(SCCN=CN)C[C@H]12` has an amount permeated of 1.64 nmol (starch gel membrane permeability; Gram-negative envelope surrogate; 200 µM, 20 min, pH 7.4).
`O=C(Nc1nc2cccc(-c3ccc(CN4CCS(=O)(=O)CC4)cc3)n2n1)C1CC1` — result for “treatment-emergent adverse events”: 0% (measured: paraesthesia; human rheumatoid arthritis patients; oral, 300 mg once daily, 4 weeks, regardless of relatedness).
For `COc1c(O)c(C)cc2c1C(=O)c1c(ccc(O)c1O)C2=O`, the cell viability was 33.5 ± 3.05% (HepaRG co-cultured with HK-2; MTT; 266.67 µM, 48 h; relative to: untreated control).
Under “incidence of GGT increase”, `CCO[C@H]1CCN(Cc2c(OC)cc(C)c3[nH]ccc23)[C@H](c2ccc(C(=O)O)cc2)C1` is recorded as 0% (PNH patients, active haemolysis; oral, 100 mg, 8 weeks, treatment).
With `COc1ccc2c(=O)n(C)c(-c3ccccc3)nc2c1` the tissue/plasma ratio was 13.9 (Sprague-Dawley rat, male, large intestine; oral, 30 mg/kg, 0.25 h; relative to: large intestine over plasma).
`O=c1oc2cc(O)ccc2c2ccccc12` gave a plasma concentration of 380 nM (human plasma; mean).
The absorbed fraction of `CC1(C)NC(=O)Cn2c1nc(-c1ccc(F)cc1)c2Nc1ccc(Cl)c(F)c1` is reported as 97.1% (PAMPA).
Under “participants with procedural pain”, `O=C(COc1ccc(Cl)cc1)NC12CC(c3nnc([C@H]4C[C@@H](OC(F)(F)F)C4)o3)(C1)C2` is recorded as 14.3% (human both sexes; oral, 100 mg once daily, 14 days).
`Cc1c2oc3c(C)ccc(C(=O)N[C@@H]4C(=O)N[C@H](C(C)C)C(=O)N5CCC[C@H]5C(=O)N(C)CC(=O)N(C)[C@@H](C(C)C)C(=O)O[C@@H]4C)c3nc-2c(C(=O)N[C@@H]2C(=O)N[C@H](C(C)C)C(=O)N3CCC[C@H]3C(=O)N(C)CC(=O)N(C)[C@@H](C(C)C)C(=O)O[C@@H]2C)c(N)c1=O` — result for “median plasma concentration”: 1.9 µg/L (LC-MS; children with cancer, plasma; dose not given, 26 h).
Under “change in QTcB interval”, `CCCCOC(=O)N1CCN(C(=O)[C@H](CP(=O)(O)O)NC(=O)c2cc(N3CC[C@H](OC)C3)nc(-c3ccccc3)n2)CC1` is recorded as 1.7 ± 12.5 ms (human; subcutaneous, 16 mg, 24 h post-dose; relative to: baseline).
`CNC(=O)c1cc(Oc2ccc(NC(=O)Nc3cc(C(C)(C)C)nn3-c3ccc4ncccc4c3)c(F)c2)ccn1`: “patients with cardiac disorders” 7% (patients; oral, dose not given, cycles 1 and 2, Medium AUC subgroup).
`CCCCC[C@H](O)CC[C@@H]1[C@H]2Cc3cccc(OCC(=O)O)c3C[C@H]2C[C@H]1O`: “geometric mean AUC(0-inf)” 0.51 ng·h/mL (LC-MS/MS; Japanese PAH patients, plasma; inhaled, 54 µg, background ERA therapy).
For `CCO[C@H]1CCN(Cc2c(OC)cc(C)c3[nH]ccc23)[C@H](c2ccc(C(=O)O)cc2)C1`, the AUC(0-7 h) was 1.66 µM·h (C57BL/6 mouse; intravenous, 1 mg/kg, dose-normalised).
`FC(F)(F)c1ccc(CNc2ccc(Cc3c[nH]c4ncc(Cl)cc34)cn2)cn1` — result for “adverse event incidence”: 15% (measured: Rash; patients with advanced solid tumours; oral, dose not given, grade 1 and 2, possibly related to drug).
`CCc1cc(C(=O)NC)c2nccc(N3CCc4c(cc(Cn5ccnc5)cc4-c4cn(C)nc4C(F)(F)F)C3=O)c2c1` — result for “AUC extrapolated fraction”: 0% (Sprague Dawley rat, male, plasma; oral, 50 mg/kg).
`Cn1c(=O)[nH]c2nc[nH]c2c1=O` — result for “samples above LOQ”: 100% (human, both sexes, plasma).
With `CN(C(=O)n1cnc(-c2ccc[n+]([O-])c2)c1)[C@H]1CC[C@H](O)CC1` the concentration was 8.8 ± 6.8 ng/g (Wistar rat, medulla oblongata; oral, 10 mg/kg/day of BIA 10-2474, 72 h, repeated 5 days).
For `Cc1nc2cccc(OCC(C)(C)C(=O)NC(C)C)c2c(N)c1C(=O)O`, “micronucleated PCE per 14000 PCE” read 7 (male Swiss albino CD-1 mouse, bone marrow; oral, 500 mg/kg, 36 h).

Some of these lines once more:
`O=C1CCC(N2Cc3cc(CO)c(F)cc3C2=O)C(=O)N1` (centres unmarked) has a plasma concentration of 0.59 ± 0.34 ng/mL (cynomolgus monkey, male; oral, 0.3 mg/kg parent drug, 4 h).
`Cc1cc(-c2ccc3cc[nH]c(=O)c3c2)ccc1O[C@H]1O[C@H](CO)[C@@H](O)[C@H](O)[C@@H]1O` has an AUC(0-all) of 126 ng·h/mL (male Sprague-Dawley rat, plasma; intravenous, 3 mg/kg, group mean).
`CC(=O)N[C@H]1CC[C@H](NC(=O)CN2CCN(c3nncc(-c4ccc(C)cc4)n3)CC2)CC1` has an AUC(0-last) of 5350 ng·h/mL (men aged 18-55 years, plasma; oral, 100 mg single dose, study).
Under “VAS score change”, `COc1cc2c(cc1OC)C(=O)C(CC1CCN(Cc3ccccc3)CC1)C2` (centres unmarked) is recorded as 0.59 mm (Bond-Lader VAS, measured: Calmness; human; dose not given; relative to: placebo, direction not given).
`C[C@@H](O)[C@H]1C(=O)N2C(C(=O)O)=C(SCCN=CN)C[C@H]12` has an amount permeated of 1.64 nmol (starch gel membrane permeability; Gram-negative envelope surrogate; 200 µM, 20 min, pH 7.4).
`O=C(Nc1nc2cccc(-c3ccc(CN4CCS(=O)(=O)CC4)cc3)n2n1)C1CC1` — result for “treatment-emergent adverse events”: 0% (measured: paraesthesia; human rheumatoid arthritis patients; oral, 300 mg once daily, 4 weeks, regardless of relatedness).
For `COc1c(O)c(C)cc2c1C(=O)c1c(ccc(O)c1O)C2=O`, the cell viability was 33.5 ± 3.05% (HepaRG co-cultured with HK-2; MTT; 266.67 µM, 48 h; relative to: untreated control).
